Measurements collected from several papers.
Parts stem from different laboratories: compare values within a part only.

Set 1
Cell line: HEK-293T
Effect on: pseudovirus infection
Method: FDA-approved drug library screen
Organism: VSV pseudotyped with SARS-CoV-2 spike
Tested at: 10 µM
Time: 16 h
Relative to: vehicle-treated
| Compound | GFP-positive cells |
| --- | --- |
| CN1C(=O)CCS(=O)(=O)C1c1ccc(Cl)cc1 (stereo not drawn) | 56.1% |
| NC[C@@H]1O[C@H](O[C@H]2[C@@H](O)[C@H](O[C@@H]3[C@@H](O)[C@H](N)C[C@H](N)[C@H]3O[C@H]3O[C@H](CO)[C@@H](O)[C@H](O)[C@H]3N)O[C@@H]2CO)[C@H](N)[C@@H](O)[C@@H]1O | 85.3% |
| Cc1ccc(C(=O)c2cc(O)c(O)c([N+](=O)[O-])c2)cc1 | 80.9% |
| OCCOCCN1CCN(C(c2ccccc2)c2ccc(Cl)cc2)CC1 (stereo not drawn) | 48.5% |

Set 2
Target: Homeobox protein Hox-C11, full length (HOXC11, Homo sapiens, UniProt O43248, residues 1-304)
UniProt O43248, sequence (whole entry, looked up): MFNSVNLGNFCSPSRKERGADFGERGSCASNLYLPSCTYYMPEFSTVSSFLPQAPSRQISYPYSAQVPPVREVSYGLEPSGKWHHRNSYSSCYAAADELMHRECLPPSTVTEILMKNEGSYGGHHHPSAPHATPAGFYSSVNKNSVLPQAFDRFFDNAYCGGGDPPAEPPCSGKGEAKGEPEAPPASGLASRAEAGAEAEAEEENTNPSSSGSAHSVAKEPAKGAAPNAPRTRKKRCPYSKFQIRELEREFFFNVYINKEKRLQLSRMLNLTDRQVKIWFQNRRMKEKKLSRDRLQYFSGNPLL
Method: protein-binding microarray
Form: hairpin DNA
Medium: in vitro
Tested at: not given
Setting: whole hairpin DNA, median over replicate spots
Relative to: not given
Reading: higher = stronger binding
| Oligonucleotide | median fluorescence |
| --- | --- |
| GAGGCCGGGTCGTAAAAGCCTCCTGGCTTTTACGACCCGGCCTCACACTC (5mC at 38) | 11000 a.u. |
| GAGGCCAGGTCGTTAAGGCCTCCTGGCCTTAACGACCTGGCCTCACACTC | 10400 a.u. |
| GAGGCCAGCGCGTAAAAGCCTCCTGGCTTTTACGCGCTGGCCTCACACTC | 10600 a.u. |

Set 3
Target: Replicase polyprotein 1ab, nsp13 helicase (rep, Severe acute respiratory syndrome coronavirus 2, UniProt P0DTD1)
Action: inhibitor
Tested at: 20 µM
| SMILES | inhibition |
| --- | --- |
| C[C@@H](CN1CCC(Cc2ccccc2)CC1)[C@@H](O)c1ccc(O)cc1 | 5.28% |
| Cc1nc(-c2ccc(OCC(C)C)c(C#N)c2)sc1C(=O)O | 0.49% |
| Cc1c(S(=O)(=O)O)oc2c1C(=O)C(=O)c1c-2ccc2c1CCCC2(C)C | 18.5% |
| N=C1NC(=O)/C(=C/c2ccc(O)cc2)S1 | 8.2% |
| COc1ccc2[nH]c([S+]([O-])Cc3ncc(C)c(OC)c3C)nc2c1 (stereo not drawn) | 0.93% |
| CCC/N=C1\S/C(=C\c2ccc(OC[C@H](O)CO)c(Cl)c2)C(=O)N1c1ccccc1C | 2.27% |
| CC(C)CNc1nc(-c2cccc3ncccc23)cn2c(-c3ccc(C(=O)NC4CC4)cc3)cnc12 | 2.41% |
| O=C(/C=C/N1C[C@H]2C[C@@H]1CN2c1ccccn1)c1ccccc1O | 6.26% |
| CC(C)=CCc1c(O)cc(O)c2c(=O)c(O)c(-c3ccc(C(F)(F)F)cc3)oc12 | -3.23% |
| O=C(O)CCc1ccc(NCc2cccc(Oc3ccccc3)c2)cc1 | 2.11% |
| CC(C)=CCC[C@](C)(O)[C@H]1CC[C@]2(C)[C@@H]1[C@H](O)C[C@@H]1[C@@]3(C)CC[C@H](O)C(C)(C)[C@@H]3[C@@H](O)C[C@]12C | 2.94% |
| O=C(O)c1cc(/N=N/c2ccc(S(=O)(=O)Nc3ccccn3)cc2)ccc1O | 2.84% |
| COc1ccc(C(=O)NCc2cccnc2)cc1C(=O)NCc1cccnc1 | -1.89% |
| Cc1nc2ccccc2c(-c2ccc3c4c(ccnc24)CCO3)c1[C@H](OC(C)(C)C)C(=O)O | -0.96% |
| C[C@@H]1CC(=O)NN=C1c1ccc(NN=C(C#N)C#N)cc1 | 4.66% |
| CCOC(=O)c1c(/C(C#N)=C\N)c2ccc(Cl)c(Cl)c2n1C | 5.51% |
| O=C(NCc1ccc2c(c1)OCO2)c1c(Cl)cccc1Cl | 0.2% |
| Cc1ccc(-c2ncc(Cl)cc2-c2ccc(S(C)(=O)=O)cc2)cn1 | 7.39% |
| Oc1ccc2ccccc2c1Cc1c(O)ccc2ccccc12 | 7.89% |
| CCCCCCCCCCCCCCCCO | 6.91% |
| CCCCOc1cc(C(=O)NCCN(CC)CC)c2ccccc2n1 | -4.19% |
| O=c1cccc2n1C[C@@H]1CNC[C@H]2C1 | 4.29% |
| Oc1ccc(C2CNCCc3c2cc(O)c(O)c3Cl)cc1 (stereo not drawn) | 5.88% |
| CC(C)(C)C(=O)C(Oc1ccc(Cl)cc1)n1ccnc1 (stereo not drawn) | 8.39% |
| C[C@@H]1CN(Cc2ncccn2)C[C@H]1c1nc2c(cnn2C2CCOCC2)c(=O)[nH]1 | 4.65% |

Set 4
Target: PABPC1L2, full length, GST fusion (mouse, UniProt A0ABA7IW68)
Method: RNAcompete
Form: RNA
Medium: in vitro
Tested at: 20 nM
Setting: 7-mer, probes averaged, single round
Relative to: mean of 7-mers
Reading: higher = stronger binding
| Oligonucleotide | 7-mer Z-score |
| --- | --- |
| CCAACGA | 0.0841 |
| UCUAUCG | -0.262 |
| CGUUCAC | -0.367 |
| CUAGCGG | -0.0518 |
| UGCUGCU | -0.266 |
| AUCAUAU | -0.0319 |
| ACGUCUU | -0.371 |
| CAAGUCA | -0.18 |

Set 5
Target: Interferon regulatory factor 7, full length, phosphomimetic (IRF7, Homo sapiens, UniProt Q92985, residues 1-503, S101K/S471D/S472D/S475D/S476D/S477D/S483D/S484D/S487D)
Method: protein-binding microarray
Form: double-stranded DNA, one strand shown
Medium: in vitro
Tested at: 250 nM
Setting: 60-bp whole probe
Together with: salmon DNA 0.4 mg/ml
Relative to: random background probes
Reading: higher = stronger binding
All sequences stand within: GCCTAGCAC … GTCTTGATTCGCTTGACGCTGCTG
Construct (chain): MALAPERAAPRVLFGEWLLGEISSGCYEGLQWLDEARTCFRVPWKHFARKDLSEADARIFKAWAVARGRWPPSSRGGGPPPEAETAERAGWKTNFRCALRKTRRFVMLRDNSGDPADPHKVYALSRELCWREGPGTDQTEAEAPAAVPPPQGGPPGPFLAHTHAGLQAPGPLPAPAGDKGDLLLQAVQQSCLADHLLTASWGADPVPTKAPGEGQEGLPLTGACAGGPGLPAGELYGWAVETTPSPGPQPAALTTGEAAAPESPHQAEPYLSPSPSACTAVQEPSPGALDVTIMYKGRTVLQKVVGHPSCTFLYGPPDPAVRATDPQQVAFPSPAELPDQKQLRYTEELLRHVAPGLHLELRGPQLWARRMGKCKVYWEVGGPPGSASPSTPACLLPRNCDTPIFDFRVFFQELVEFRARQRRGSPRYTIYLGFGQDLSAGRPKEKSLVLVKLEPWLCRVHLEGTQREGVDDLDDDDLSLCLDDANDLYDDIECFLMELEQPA
| Oligonucleotide | log fluorescence |
| --- | --- |
| TGAGATTTCAGTATCGATTAGTGCTAG | 0.814 z-score |
| TTAGGATTCGGTATCGGTTAGTGCTAG | 4.19 z-score |
| GACGGTCTCCTTCTCCGGACGTGCTAG | 0.243 z-score |
| TCATAGCTTCCTTTCGCACTGTGCTAG | 0.309 z-score |
| TTAGAAGTGAGTTTCGATTAGTGCTAG | 7.61 z-score |
| GATGGTTTCGGACTGGGGACGTGCTAG | 4.4 z-score |
| GACGGTTTCAGTTTCGAGACGTGCTAG | 8.4 z-score |
| GACGAACTGTGGACTGGAGACGTGCTA | -0.607 z-score |

Set 6
Target: Replicase polyprotein 1ab, main protease (rep, Severe acute respiratory syndrome coronavirus 2, UniProt P0DTD1)
Effect on: enzyme activity
Action: inhibitor
Tested at: 20 µM
Setting: primary screen
| SMILES | inhibition [%] |
| --- | --- |
| CCCCC/C=C/C/C=C/C/C=C/C/C=C/CCCC(=O)O | 37.9 |
| O=C1OC2(c3ccccc31)c1cc(Br)c(O)c(Br)c1Oc1c2cc(Br)c(O)c1Br | 48 |
| Nc1nc(=S)c2ncn([C@@H]3O[C@H](CO)[C@@H](O)[C@H]3O)c2[nH]1 | 100 |

Excerpt of the above (set 1):
| Compound | GFP-positive cells |
| --- | --- |
| CN1C(=O)CCS(=O)(=O)C1c1ccc(Cl)cc1 (stereo not drawn) | 56.1% |
| NC[C@@H]1O[C@H](O[C@H]2[C@@H](O)[C@H](O[C@@H]3[C@@H](O)[C@H](N)C[C@H](N)[C@H]3O[C@H]3O[C@H](CO)[C@@H](O)[C@H](O)[C@H]3N)O[C@@H]2CO)[C@H](N)[C@@H](O)[C@@H]1O | 85.3% |
| Cc1ccc(C(=O)c2cc(O)c(O)c([N+](=O)[O-])c2)cc1 | 80.9% |
| OCCOCCN1CCN(C(c2ccccc2)c2ccc(Cl)cc2)CC1 (stereo not drawn) | 48.5% |
